Measurements collected from several papers.
Compare with care: the assays were run in different laboratories.

Structure (SMILES)	test	system	setting	measurement	result
Cc1ccc2[nH]c(=S)n(Cc3cccnc3)c(=O)c2c1	–	mouse plasma	concentration not given	plasma stability	95 to 98.7%
O=C(CCCCCCC(=O)Nc1ccccc1)NO	–	rat plasma	–	plasma stability	stable
CCNCCCn1c2c(c3cc(OC)c(OC)cc3c1=O)C(=O)c1cc3c(nc1-2)OCO3	–	human plasma	1 µM, 6 h, 37 °C	plasma stability	86.2%
O=C(O)CCc1cccc(O)c1	–	human plasma	mean	plasma concentration	1770 nM
OCCOCc1ccc(-c2noc(-c3ccc(OCC[18F])c(C(F)(F)F)c3)n2)cc1	ultrafiltration	Macaca mulatta, plasma	together with: ponesimod 0.063 mg/kg	plasma free fraction	0.61%
COc1ccc(C2CC(=O)c3c(O)cc(OS(=O)(=O)O)cc3O2)cc1O (centres unmarked)	–	human plasma	mean	plasma concentration	7680 nM
COc1ccccc1OCC(O)CN1CCN(CC(=O)Nc2c(C)cccc2C)CC1 (centres unmarked)	–	human, plasma	oral, 12 mg/kg/day every 12 h, 1 h post-dose	plasma concentration	1180 ng/mL
O=C(O)C=Cc1ccc(O)c(OS(=O)(=O)O)c1	–	human plasma	median	plasma concentration	188 nM
C[C@@H](O)[C@H](NC(=O)[C@H](Cc1ccc(O)cc1)NC(=O)[C@H](Cc1ccc(O)cc1)NC(=O)[C@H](CO)NC(=O)[C@H](CCCNC(=N)N)NC(=O)[C@H](Cc1c[nH]cn1)NC(=O)[C@@H](N)Cc1c[nH]c2ccccc12)C(=O)N[C@@H](Cc1c[nH]c2ccccc12)C(=O)N[C@@H](CC(N)=O)C(N)=O	–	human serum albumin	–	plasma protein binding	84%
COc1cc(CCC(=O)O)ccc1OS(=O)(=O)O	–	human plasma	mean	plasma concentration	409 nM
O=c1c2cc(Cl)ccc2[nH]c(=S)n1Cc1cccnc1	–	mouse plasma	concentration not given	plasma stability	95 to 98.7%
COc1cc2c3c(n(CCCNC(C)C)c(=O)c2cc1OC)-c1nc2c(cc1C3=O)OCO2	–	human plasma	1 µM, 6 h, 37 °C	plasma stability	95%
C[C@H](CCC(=O)NCC(=O)O)[C@H]1CC[C@H]2[C@@H]3[C@H](O)C[C@@H]4C[C@H](O)CC[C@]4(C)[C@H]3CC[C@]12C	–	women, T/C genotype, plasma	dose not given, geometric mean	plasma concentration	331 ng/mL
C=CC(=O)N1CCC([C@@H]2CCNc3c(C(N)=O)c(-c4ccc(Oc5ccccc5)cc4)nn32)CC1	–	human K2EDTA plasma	laboratory lighting	plasma stability at room temperature	8.5 h
Cl.N=C(CC(O)c1cc2c(F)cc(F)cc2c2cc(C(F)(F)F)ccc12)Nc1ccc(Br)cc1 (centres unmarked)	–	human plasma	2.5 and 50 ng/mL	plasma half-life	1980 to 2280 min
CC(=O)N1CCN(c2ccc(OCC3COC(Cn4ccnc4)(c4ccc(Cl)cc4Cl)O3)cc2)CC1 (centres unmarked)	–	human plasma	1 µM, 6 h, 37 °C	plasma stability	105%
O=C(O)/C=C/c1cccc(O)c1	–	human plasma	mean	plasma concentration	1830 nM
CC(C)C[C@H](NC(=O)[C@@H](Cc1c[nH]c2ccccc12)NC(=O)[C@H](Cc1ccc(O)cc1)NC(=O)[C@H](CO)NC(=O)[C@H](Cc1c[nH]c2ccccc12)NC(=O)[C@H](Cc1c[nH]cn1)NC(=O)[C@@H]1CCC(=O)N1)C(=O)N[C@@H](CCCNC(=N)N)C(=O)N1CCC[C@H]1C(=O)NCC(N)=O	–	Chinese children, precocious puberty, plasma	intramuscular, 22.5 mg, 8640 h, month 12, mean	plasma concentration	0.0284 ng/mL
O=C(/C=C/c1ccc(O)c(O)c1)O[C@@H]1C[C@](O)(C(=O)O)C[C@@H](O)[C@H]1O	–	human plasma	mean, both sexes	plasma concentration	151 nM
O=C1CCc2ccc(OCCCCN3CCN(c4cccc(Cl)c4Cl)CC3)cc2N1	–	patients, plasma, steady state	oral or long-acting depot injection, dose not given, CYP2D6 NM, median	plasma concentration	107 ng/mL
O=C(O)[C@H]1O[C@@H](Oc2cc(O)c3c(=O)c(O)c(-c4ccc(O)c(O)c4)oc3c2)[C@H](O)[C@@H](O)[C@@H]1O	–	human plasma	median	plasma concentration	542 nM
Cc1cc(Nc2ccc(S(F)(F)(F)(F)F)cc2)n2ccnc2n1	–	diluted mouse plasma	2 µM, 6 h	plasma stability	100 % remaining
COc1ccc(C(=O)O)cc1OS(=O)(=O)O	–	human plasma	median	plasma concentration	2260 nM
C[C@H](CCC(=O)NCC(=O)O)[C@H]1CC[C@H]2[C@@H]3CC[C@@H]4C[C@H](O)CC[C@]4(C)[C@H]3C[C@H](O)[C@]12C	–	men, T/C genotype, plasma	dose not given, geometric mean	plasma concentration	133 ng/mL
CC#Cc1cncc(-c2ccc3c(c2)[C@@]2(N=C(C)C(N)=N2)[C@]2(CC[C@H](OC)CC2)C3)c1	–	human, dog, guinea pig, rat, mouse plasma	–	plasma stability	stable
COc1cc2c3c(n(CCCNCCO)c(=O)c2cc1OC)-c1nc2c(cc1C3=O)OCO2	–	mouse plasma	1 µM, 6 h, 37 °C	plasma stability	97.6%

Repeated from above:
Structure (SMILES)	test	system	setting	measurement	result
O=c1c2cc(Cl)ccc2[nH]c(=S)n1Cc1cccnc1	–	mouse plasma	concentration not given	plasma stability	95 to 98.7%
O=C(CCCCCCC(=O)Nc1ccccc1)NO	–	rat plasma	–	plasma stability	stable
COc1cc(CCC(=O)O)ccc1OS(=O)(=O)O	–	human plasma	mean	plasma concentration	409 nM
COc1cc2c3c(n(CCCNCCO)c(=O)c2cc1OC)-c1nc2c(cc1C3=O)OCO2	–	mouse plasma	1 µM, 6 h, 37 °C	plasma stability	97.6%
